Measurements gathered from unrelated publications.
Protocols differ between the studies behind these lines. Numbers after ± are the reported error.
CASP7: Caspase-7 (CASP7, Homo sapiens, UniProt P55210)
Sequence of UniProt P55210 (whole entry, looked up): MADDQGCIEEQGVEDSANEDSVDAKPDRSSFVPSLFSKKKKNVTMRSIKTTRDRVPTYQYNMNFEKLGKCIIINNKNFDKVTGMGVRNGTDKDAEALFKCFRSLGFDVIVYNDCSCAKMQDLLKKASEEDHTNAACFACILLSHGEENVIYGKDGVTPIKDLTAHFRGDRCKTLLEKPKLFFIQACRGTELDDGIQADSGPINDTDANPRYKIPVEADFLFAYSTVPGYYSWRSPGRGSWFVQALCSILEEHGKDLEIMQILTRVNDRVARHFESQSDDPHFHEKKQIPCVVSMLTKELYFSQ
Sequence of UniProt O43781 (whole entry, looked up): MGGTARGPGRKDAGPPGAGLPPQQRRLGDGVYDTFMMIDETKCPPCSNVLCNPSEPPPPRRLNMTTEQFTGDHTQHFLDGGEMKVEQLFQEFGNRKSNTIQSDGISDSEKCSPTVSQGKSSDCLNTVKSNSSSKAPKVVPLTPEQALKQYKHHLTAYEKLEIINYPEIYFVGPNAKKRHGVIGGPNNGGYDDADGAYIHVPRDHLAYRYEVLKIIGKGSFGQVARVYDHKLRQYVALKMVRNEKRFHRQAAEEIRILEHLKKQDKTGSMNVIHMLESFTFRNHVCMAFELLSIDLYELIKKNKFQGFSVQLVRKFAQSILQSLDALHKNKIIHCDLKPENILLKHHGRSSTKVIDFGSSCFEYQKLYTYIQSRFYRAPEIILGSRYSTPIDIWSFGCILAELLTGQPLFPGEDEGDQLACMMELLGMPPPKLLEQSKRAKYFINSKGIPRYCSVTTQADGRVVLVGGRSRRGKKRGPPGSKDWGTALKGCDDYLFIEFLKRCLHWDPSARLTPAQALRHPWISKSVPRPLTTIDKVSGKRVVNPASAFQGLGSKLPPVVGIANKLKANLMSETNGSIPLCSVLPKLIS
Sequence of UniProt P15066 (whole entry, unmodified, looked up): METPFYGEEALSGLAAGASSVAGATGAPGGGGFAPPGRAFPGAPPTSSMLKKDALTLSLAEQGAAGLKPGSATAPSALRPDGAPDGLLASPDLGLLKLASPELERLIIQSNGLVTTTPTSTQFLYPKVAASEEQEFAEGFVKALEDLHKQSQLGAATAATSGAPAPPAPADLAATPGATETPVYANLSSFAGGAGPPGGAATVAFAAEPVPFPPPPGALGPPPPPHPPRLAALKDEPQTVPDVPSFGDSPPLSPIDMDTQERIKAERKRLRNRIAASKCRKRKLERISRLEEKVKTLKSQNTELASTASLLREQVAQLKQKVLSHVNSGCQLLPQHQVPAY
Sequence of UniProt Q13422 (whole entry, looked up): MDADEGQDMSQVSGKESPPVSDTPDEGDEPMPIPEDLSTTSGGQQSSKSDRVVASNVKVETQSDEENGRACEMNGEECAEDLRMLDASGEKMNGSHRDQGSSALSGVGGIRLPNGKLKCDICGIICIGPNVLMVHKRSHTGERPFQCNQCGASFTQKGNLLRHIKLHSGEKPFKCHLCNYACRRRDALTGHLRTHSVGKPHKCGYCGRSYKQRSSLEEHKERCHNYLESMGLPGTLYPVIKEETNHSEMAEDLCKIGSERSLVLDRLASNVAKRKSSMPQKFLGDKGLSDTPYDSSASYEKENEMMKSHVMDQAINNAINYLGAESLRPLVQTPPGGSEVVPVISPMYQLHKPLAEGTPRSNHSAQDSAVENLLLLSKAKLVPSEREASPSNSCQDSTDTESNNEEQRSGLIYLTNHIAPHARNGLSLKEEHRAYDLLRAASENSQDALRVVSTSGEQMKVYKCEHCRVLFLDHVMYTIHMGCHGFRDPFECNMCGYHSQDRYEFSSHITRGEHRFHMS
Sequence of UniProt Q96SW2 (whole entry, looked up): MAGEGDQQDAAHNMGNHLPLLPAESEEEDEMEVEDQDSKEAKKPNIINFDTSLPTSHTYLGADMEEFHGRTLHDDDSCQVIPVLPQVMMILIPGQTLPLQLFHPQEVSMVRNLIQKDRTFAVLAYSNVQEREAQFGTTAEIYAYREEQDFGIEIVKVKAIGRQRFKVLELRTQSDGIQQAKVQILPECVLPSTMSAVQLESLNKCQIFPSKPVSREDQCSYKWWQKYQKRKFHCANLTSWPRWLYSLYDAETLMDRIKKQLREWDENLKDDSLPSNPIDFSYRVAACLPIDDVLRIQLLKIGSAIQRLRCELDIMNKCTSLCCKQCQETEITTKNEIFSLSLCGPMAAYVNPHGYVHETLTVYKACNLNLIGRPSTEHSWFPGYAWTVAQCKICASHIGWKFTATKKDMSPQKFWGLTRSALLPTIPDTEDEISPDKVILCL
Sequence of UniProt Q03431 (whole entry, looked up): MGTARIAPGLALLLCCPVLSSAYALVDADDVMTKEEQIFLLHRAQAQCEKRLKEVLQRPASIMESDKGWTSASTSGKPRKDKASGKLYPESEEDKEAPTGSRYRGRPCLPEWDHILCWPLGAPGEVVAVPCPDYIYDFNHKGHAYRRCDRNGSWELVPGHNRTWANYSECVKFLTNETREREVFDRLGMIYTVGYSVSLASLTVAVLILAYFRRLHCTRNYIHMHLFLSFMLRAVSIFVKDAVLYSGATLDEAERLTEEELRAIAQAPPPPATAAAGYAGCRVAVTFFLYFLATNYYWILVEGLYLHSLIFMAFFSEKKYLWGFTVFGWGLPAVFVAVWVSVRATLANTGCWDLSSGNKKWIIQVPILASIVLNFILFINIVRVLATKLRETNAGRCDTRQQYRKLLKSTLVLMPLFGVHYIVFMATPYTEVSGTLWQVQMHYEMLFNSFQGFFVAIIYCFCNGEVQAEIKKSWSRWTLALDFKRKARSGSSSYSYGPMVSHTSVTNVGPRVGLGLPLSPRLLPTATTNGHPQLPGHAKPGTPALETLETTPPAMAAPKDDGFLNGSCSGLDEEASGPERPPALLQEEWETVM
Sequence of UniProt P00921 (whole entry, looked up): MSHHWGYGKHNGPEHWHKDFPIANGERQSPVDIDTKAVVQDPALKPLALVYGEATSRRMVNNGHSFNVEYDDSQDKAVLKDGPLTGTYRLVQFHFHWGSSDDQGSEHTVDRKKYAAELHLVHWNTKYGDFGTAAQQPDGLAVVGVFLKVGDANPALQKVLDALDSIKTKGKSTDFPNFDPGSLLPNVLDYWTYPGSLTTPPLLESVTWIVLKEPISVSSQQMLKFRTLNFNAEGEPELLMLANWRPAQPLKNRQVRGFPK
Sequence of UniProt P33240 (whole entry, looked up): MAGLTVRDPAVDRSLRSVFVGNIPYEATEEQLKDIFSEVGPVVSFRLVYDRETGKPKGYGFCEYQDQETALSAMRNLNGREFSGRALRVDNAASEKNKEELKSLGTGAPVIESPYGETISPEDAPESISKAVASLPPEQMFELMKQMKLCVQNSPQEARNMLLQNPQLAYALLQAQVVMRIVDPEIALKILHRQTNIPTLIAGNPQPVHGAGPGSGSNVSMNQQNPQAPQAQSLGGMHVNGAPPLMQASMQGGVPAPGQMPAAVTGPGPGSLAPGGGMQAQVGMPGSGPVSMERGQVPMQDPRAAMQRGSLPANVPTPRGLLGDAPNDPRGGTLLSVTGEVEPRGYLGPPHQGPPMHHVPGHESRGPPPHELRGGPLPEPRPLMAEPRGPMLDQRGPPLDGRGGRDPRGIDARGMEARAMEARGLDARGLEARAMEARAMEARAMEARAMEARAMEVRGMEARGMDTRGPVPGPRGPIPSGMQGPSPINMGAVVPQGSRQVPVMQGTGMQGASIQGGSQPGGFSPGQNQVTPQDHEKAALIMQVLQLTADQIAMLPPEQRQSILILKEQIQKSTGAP
Sequence of UniProt P48643 (whole entry, looked up): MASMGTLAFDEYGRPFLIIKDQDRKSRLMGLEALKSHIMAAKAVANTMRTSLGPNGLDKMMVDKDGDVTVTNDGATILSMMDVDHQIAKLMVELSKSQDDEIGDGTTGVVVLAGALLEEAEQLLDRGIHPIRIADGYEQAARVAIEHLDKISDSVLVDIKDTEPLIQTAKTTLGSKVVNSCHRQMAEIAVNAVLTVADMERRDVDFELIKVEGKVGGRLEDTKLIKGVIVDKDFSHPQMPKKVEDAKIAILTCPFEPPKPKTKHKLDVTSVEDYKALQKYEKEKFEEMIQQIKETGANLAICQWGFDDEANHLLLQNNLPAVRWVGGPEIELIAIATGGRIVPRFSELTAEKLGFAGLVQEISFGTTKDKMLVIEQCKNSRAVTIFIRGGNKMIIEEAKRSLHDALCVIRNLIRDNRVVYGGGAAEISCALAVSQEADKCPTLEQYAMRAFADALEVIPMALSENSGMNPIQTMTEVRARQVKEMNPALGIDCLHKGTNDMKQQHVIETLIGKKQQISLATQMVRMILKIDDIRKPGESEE
Sequence of UniProt Q9HB29 (whole entry, looked up): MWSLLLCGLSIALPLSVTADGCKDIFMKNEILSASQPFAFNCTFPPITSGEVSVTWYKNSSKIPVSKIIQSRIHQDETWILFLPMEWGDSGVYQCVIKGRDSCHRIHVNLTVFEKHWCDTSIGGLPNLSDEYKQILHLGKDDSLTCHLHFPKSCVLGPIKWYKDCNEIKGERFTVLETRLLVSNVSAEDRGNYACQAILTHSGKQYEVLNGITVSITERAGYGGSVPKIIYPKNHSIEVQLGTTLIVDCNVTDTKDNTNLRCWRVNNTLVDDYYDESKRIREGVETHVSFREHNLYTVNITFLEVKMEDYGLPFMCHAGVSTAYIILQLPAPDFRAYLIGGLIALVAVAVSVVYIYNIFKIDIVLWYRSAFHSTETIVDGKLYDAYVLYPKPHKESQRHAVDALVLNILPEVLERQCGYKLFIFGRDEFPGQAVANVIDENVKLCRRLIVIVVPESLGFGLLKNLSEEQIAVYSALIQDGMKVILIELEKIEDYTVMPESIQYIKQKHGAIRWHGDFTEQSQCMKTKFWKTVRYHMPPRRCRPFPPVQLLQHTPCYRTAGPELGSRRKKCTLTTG

SMILES | target or system | test | system | setting | scale | endpoint | result
Cc1nn(-c2cccc(N)c2)c(=O)c2cnc(Nc3ccc(N4CCNCC4)cc3)nc12 | DYRK3 (Homo sapiens, UniProt O43781) | enzyme activity, inhibitor |  |  |  | IC50 | > 10000 nM
CC(=O)[O-].O.O.O.O.[Co+2].[O-]c1ccc(Br)cc1C=NCCN1CCOCC1 |  | FRAP |  | 200 µM |  | ferric reducing power | 51.3%
CC(C)[C@@H]1NC(=O)[C@H](Cc2ccccc2)NC(=O)CSC[C@@H](C(N)=O)NC(=O)[C@H](CCC(=O)O)NC(=O)[C@H](CO)NC(=O)[C@H](Cc2c[nH]c3cccc(Cl)c23)NC(=O)[C@H](C2CCCCC2)NC(=O)[C@H](C(C)C)NC(=O)[C@H](Cc2ccc(O)cc2)NC(=O)[C@H](CC(=O)O)NC(=O)[C@H](Cc2c[nH]c3ccccc23)NC(=O)[C@H](Cc2ccc(N)nc2)NC(=O)[C@H](Cc2c[nH]c3ccc(Cl)cc23)NC(=O)[C@H](CCC(=O)O)NC1=O | Interleukin-1 receptor-like 2 (IL1RL2, Homo sapiens, UniProt Q9HB29) | reporter gene (SEAP), inhibitor, HEK-Blue IL-36R reporter | HEK-Blue IL-36R cells | 0.005 µM, 6 h, added: IL-36γ 3 ng/mL |  | remaining activity | 104%
Cc1ncsc1-c1ccc(C(C)NC(=O)C2CC(O)CN2C(=O)C(NC(=O)CCCCCCCCCCN2CCCC(Nc3ncc(Cl)c(Nc4ccccc4S(=O)(=O)C(C)C)n3)C2)C(C)(C)C)cc1 (stereo not drawn) | 22Rv1 | RNA-seq, measured: RNF135 mRNA |  | concentration not given | relative to: DMSO | log2 fold change | -1.31
CCCCCCCCCCCCCCCC(=O)NCCCC[C@H](NC(=O)[C@H](CCC(=O)O)NC(=O)[C@H](Cc1ccc(O)cc1)NC(=O)[C@H](CCC(=O)O)NC(=O)COCC(=O)NCCCOCCOCCOCCCNC(=O)[C@H](Cc1c[nH]c2ccccc12)NC(=O)[C@H](CCCCN)NC(=O)[C@H](C)NC(=O)[C@H](CCCCNC(=N)N)NC(=O)[C@H](CCC(N)=O)NC(=O)[C@H](Cc1c[nH]cn1)NC(=O)[C@H](CCSC)NC(=O)[C@H](CC(C)C)NC(=O)[C@H](CCC(N)=O)NC(=O)[C@@H](NC(=O)[C@H](CCC(=O)O)NC(=O)C(C)(C)NC(=O)[C@@H](NC(=O)C(C)(C)N)C(C)C)[C@@H](C)CC)C(=O)N[C@@H](CCC(=O)O)C(=O)N[C@@H](Cc1ccc(O)cc1)C(=O)N[C@@H](CCC(=O)O)C(N)=O | PTH1R (Homo sapiens, UniProt Q03431) | agonist | Saos-2 with cAMP reporter | 3.16 pM, 90 min, washout after 30 min ligand | higher = more cAMP | cAMP luminescence AUC | 130 a.u.
CNS(=O)(=O)Nc1nccc(Cc2c(C)c3ccc(Oc4ncccc4F)cc3oc2=O)c1F | KCL-22 | cell viability |  | 7 days |  | IC50 | 3.1 nM
CC(=O)N[C@@H](Cc1ccccc1Cl)C(=O)N[C@@H](CCC(=O)O)C(=O)N[C@@H](C)C(=O)N[C@@H](CC(=O)O)C(=O)COC(=O)c1c(C)cccc1C | CASP7 | enzyme activity, inhibitor |  |  |  | kinact/KI | 58400 M⁻¹ s⁻¹
O=C(Nc1cnccc1-c1ccc([18F])nc1)c1ccnc(NC(=O)C2CC2)c1 |  |  | FVB/NJ mice, both sexes, liver | intravenous, 25 min, median, no P-gp inhibitor |  | SUV | 8.97
COC1CN([C@H]2CC[C@H]([C@@]3(C)Oc4c(Cl)cc(C(=O)NCc5c(SC)cc(C)[nH]c5=O)c(C)c4O3)CC2)C1 |  | RNA-seq, measured: TJP2 | human, whole blood | dose not given, 24 h | relative to: pretreatment baseline | log2 fold change | 1.34
C=CC(=O)Nc1cccc(Cn2ncc3cnc(Nc4cnn(CCOC)c4)nc32)c1 | DYRK2 human | binding, KINOMEscan |  | 100 nM | lower = stronger binding | percent of control | 100%
COC(=O)Cc1cc2c(cc1C(=O)c1ccccc1I)OCO2 | Gria2 (Rattus norvegicus, UniProt P19491) | glutamate-evoked current, whole-cell patch clamp | HEK-293T | concentration not given, pH 7.4, holding potential -60 mV, added: 10 mM glutamate |  | current amplitude | 851 ± 71 pA
CC[C@H](C)[C@H](NC(=O)[C@H](CCCC(=O)O)NC(=O)[C@H](CC(=O)O)NC(C)=O)C(=O)N[C@@H](CC(=O)O)C(=O)COC(=O)c1c(C)cccc1C | CASP7 | enzyme activity, inhibitor |  |  |  | kinact/KI | 488000 M⁻¹ s⁻¹
C=CC(=O)N1CCCC(n2c(=O)c3ncccc3n(Cc3ccc(Oc4ccccc4)cc3)c2=O)C1 (stereo not drawn) | CCT5 (Homo sapiens, UniProt P48643) | thermal proteome profiling | cell proteome | unit not given | relative to: vehicle | melting temperature shift | -3.29
Cc1cccc(C2(C(=O)Nc3c[nH]nc3-c3ccccc3)CC2)c1 | human kinase panel | binding, KINOMEscan |  | 10000 nM, %Ctrl below 10 |  | number of kinases hit | 0
C=CC(=O)N1CCC(c2cc(C(=O)O)n(C)n2)CC1 | Fosb/Jund, ΔFosB bZIP domain (Mus musculus, UniProt P13346+P15066) | intact mass LC-MS, measured: unmodified JUND bZIP |  | concentration not given | relative to: total JUND species | relative abundance | 30.7%
COc1cc(Nc2nccc(-c3cnn4nc(OC)ccc34)n2)cc(C(F)(F)F)c1 | Tyrosine-protein kinase ABL1, phosphorylated (ABL1, Homo sapiens, UniProt P00519, Y253F) | binding |  | 1 µM |  | remaining binding | 82%
CCCCCC=CC=C1C(=O)C=CC1CC=CCCCC(=O)O (stereo not drawn) | Cleavage stimulation factor subunit 2 (CSTF2, Homo sapiens, UniProt P33240) | competitive isoTOP-ABPP, measured: CSTF2 cysteine peptide | proteome, soluble, MDA-MB-231 | 100 µM, added: iodoacetamide probe | relative to: DMSO over compound-treated, higher = stronger cysteine blockade | isoTOP-ABPP competition ratio | 3
Cc1ccc(NC(=O)NC(C)(C)c2cccc(NC3=CC(=O)N(C4CCC(=O)NC4=O)C3=O)c2)cc1Cl (stereo not drawn) | Cereblon/Ikaros (Homo sapiens, UniProt Q13422+Q96SW2) | degrader, quantitative proteomics, measured: protein abundance | human regulatory T cells | 1 µM, 4 h | relative to: DMSO | log2 fold change | -0.388
Nc1ncnc2c1ncn2C1OC(CN(CCCC2CNCc3c2ccc(Cl)c3Cl)CCC(N)C(=O)O)C(O)C1O (mixture of isomers) | PNMT (Homo sapiens, UniProt P11086) | ITC |  | second site, SAH bound |  | −TΔS-2 | -16.2 kcal/mol
CN(C)c1ccc2c(c1)C(=O)N(c1ccc(S(N)(=O)=O)cc1)C2=O | CA2 (Bos taurus, UniProt P00921) | binding |  |  |  | emission maximum | 533 nm
COc1ccc(NC(=O)c2cc(-c3ccccc3)n(-c3ccccc3)n2)cc1 | Genome polyprotein, NS2B-NS3 protease (dengue virus type 2, UniProt P29990) | enzyme activity, fluorogenic AMC substrate |  | 50 µM |  | inhibition | 37%

For quick reference, copied from above:
SMILES | target or system | test | system | setting | scale | endpoint | result
CNS(=O)(=O)Nc1nccc(Cc2c(C)c3ccc(Oc4ncccc4F)cc3oc2=O)c1F | KCL-22 | cell viability |  | 7 days |  | IC50 | 3.1 nM
CC(=O)N[C@@H](Cc1ccccc1Cl)C(=O)N[C@@H](CCC(=O)O)C(=O)N[C@@H](C)C(=O)N[C@@H](CC(=O)O)C(=O)COC(=O)c1c(C)cccc1C | CASP7 | enzyme activity, inhibitor |  |  |  | kinact/KI | 58400 M⁻¹ s⁻¹
O=C(Nc1cnccc1-c1ccc([18F])nc1)c1ccnc(NC(=O)C2CC2)c1 |  |  | FVB/NJ mice, both sexes, liver | intravenous, 25 min, median, no P-gp inhibitor |  | SUV | 8.97
